Measurements gathered from unrelated publications.
± gives the spread as reported.

The inhibition of `Cc1cc2[nH]c(C(=O)Nc3ccccc3C)c(CN3CCOCC3)c2s1` is reported as < 50% (human Fibroblast; cell growth or viability, SRB; 100 µM).
For `CC(=O)OC[C@H]1O[C@@H](Sc2sc(C(=O)c3ccc(C)cc3)c(N)c2-c2nc3ccccc3s2)[C@H](OC(C)=O)[C@@H](OC(C)=O)[C@H]1OC(C)=O`, the growth was 91.3% (SF-539; SRB; 10 µM, 48 h; reference: untreated).
`Cc1cc(N)c2ccccc2[n+]1CCCCCCCCCCCCCC[n+]1c(C)cc(N)c2ccccc21`: “time to majority cell death” 72 h (NB12 neuroblastoma tumour-initiating cells; trypan blue exclusion; concentration not given).
For `CCCC(CCC)C(=O)[O][Pt]([NH2])([NH2])([Cl])([Cl])[O]C(=O)C(Cl)Cl`, the resistance factor was 1.2 (C13 and 2008; cytotoxicity, MTT; reference: IC50 C13 over IC50 2008).
`COc1cc2c(C=C3C(=O)Nc4ccccc43)c[nH]c2cc1C` gave a TGI of 6.76 µM (breast cancer subpanel of NCI-60; 48 h).
`O=Cc1c(O)ccc2ccccc12`: “log2 fold change” -3.3 (HUVEC; RNA sequencing, item: EXO1; 75 µM, 24 h; reference: DMSO).
For `COc1cc(CNC(=O)C[C@H](C)CCC=C(C)C)ccc1OCc1cn(-c2ccc(F)cc2)nn1`, the growth percent was 75.3% (RPMI-8226 leukaemia cells; SRB; 10 µM, 48 h).
`CN1CCN(C(=O)N(CCCCCCC(=O)NO)c2ccc(-c3ccc4cnn(C)c4c3)cc2)CC1`: acetylation “increased” (MM1.S; immunoblot, item: histone H3 and H4; 30 to 1000 nM, 6 h).
Under cell growth, `C=CC(=O)Oc1ccc(Cl)cc1C(=O)Nc1ccc([N+](=O)[O-])cc1Cl` is recorded as “decreased” (C4-2B MDVR cells; total cell number; 0.5 µM, 5 days).
For `COc1cc(CNC(=O)C[C@H](C)CCC=C(C)C)ccc1OCc1cn(-c2ccccc2)nn1`, the growth percent was 93.8% (U-251 CNS cancer cells; SRB; 10 µM, 48 h).
`COc1ccc2c(c1)C(=C1Nc3ccccc3C1=NOCC(O)CO)C(=O)N2` (stereo not drawn): phosphorylation “decreased” (PANC-1, MIA PaCa-2, BxPC-3, AsPC-1; Western blot, item: STAT3 pTyr705; 5 µM, 4 h).
For `O=C1C(Cl)=C(NCCN2CCOCC2)C(=O)c2ncccc21`, the effective concentration was < 5 µM (HEK-293T; H4K20me1 level, inhibitor, western blot; 24 h).
The GI50 of `CCC(=C(c1ccc(Cl)cc1)c1ccc(OCCCN(C)C)cc1)c1ccc(OC)cc1` is reported as 3090 nM (IGROV-1; cell growth or viability).
For `C=C(CC)C(=O)c1ccc(OCC(=O)NCCNC(=O)COc2ccc(C(=O)C(=C)CC)c(Cl)c2Cl)c(Cl)c1Cl`, “sensitisation to cisplatin” read ~7 fold (A549/DDP cisplatin-resistant; cell growth, CCK-8; 1.0 µM, together with: cisplatin).
The growth percent of `COc1cc(CNC(=O)C[C@H](C)CCC=C(C)C)ccc1OCc1cn(-c2ccc(Br)cc2)nn1` is reported as 69.3% (RPMI-8226 leukaemia cells; SRB; 10 µM, 48 h).
For `CC(=O)N[C@H](C(=O)N[C@H](C(=O)N[C@@H](CCCNC(=N)N)C(=O)N1Cc2ccccc2C[C@H]1C(=O)N[C@@H](Cc1ccccc1)C(N)=O)C1CCCCC1)C(C)C`, the cytokine level was 283 ± 302 pg/mL (MBP-specific BC-3 T cells; Bio-Plex multiplex, item: IP-10; 200 µg/mL, 24 h, together with: MBP87-99 antigen).
`CCC12CCc3c(c4ccccc4n3C)CCN(CC3OC31)C2` (stereo not drawn) — result for “HO-1 protein level”: 8.69 fold (BV-2; western blot; 25 µM, together with: LPS; reference: LPS alone).
`CCOC(=O)c1cc2cc(C(=O)N3CCN(CCOc4ccccc4)CC3)ccc2[nH]1` — result for “lowest active concentration”: 1 µM (HEK293 NRF2 luciferase reporter; NRF2 reporter gene, activator; 18 h; reference: control).
The growth percent of `COc1cc(CNC(=O)C[C@H](C)CCC=C(C)C)ccc1OCc1cn(-c2ccc(C#N)cc2)nn1` is reported as 58.3% (RPMI-8226 leukaemia cells; SRB; 10 µM, 48 h).
`C1=[N+]2CCCC[N+]3=Cc4ccc5[n]4[Au-]23[n]2c1ccc2-c1nc2ccccc2nc1-5.F[P-](F)(F)(F)(F)F` gave a GI50 of 3000 nM (CNS cancer cell lines; NCI60 panel mean).
The growth of `COc1cc(CNC(=O)C[C@H](C)CCC=C(C)C)ccc1OCc1cn(-c2cccc(C(F)(F)F)c2)nn1` is reported as 97.1% (CCRF-CEM; SRB; 10 µM, 48 h).
`COc1ccc(NC(=O)COc2ccc(/C=C/C(C)=N/O)cc2OC)cc1`: “TNF-α expressing cells” 41.4% (SH-SY5Y; flow cytometry; 2.5 µM, together with: amyloid beta 10 µM).
`COc1cc(CNC(=O)C[C@H](C)CCC=C(C)C)ccc1OCc1cn(-c2ccc(Cl)cc2Cl)nn1` gave a growth percent of 66.9% (SF-539 CNS cancer cells; SRB; 10 µM, 48 h).
`CCCC[C@H](NC(=O)[C@H](Cc1ccccc1)NC(=O)[C@H](Cc1c[nH]cn1)NC(=O)C[C@@H](NC(=O)[C@@H](NC(=O)[C@H](C)NC(=O)[C@H](Cc1c[nH]c2ccccc12)NC(=O)[C@H](CCC(N)=O)NC(=O)[C@H](N)Cc1ccc(O)cc1)C(C)C)c1ccccc1)C(N)=O`: “EGFR tyrosine phosphorylation” “increased” (NCI-H1299 expressing BRS-3; EGFR transactivation, Western blot; 100 nM).
The optimal concentration of `CCCCCCCCN(CCC(=O)Nc1ccccc1)C(=O)c1ccccn1` is reported as 2 µM (Lmna G609G/G609G mouse fibroblasts; cell proliferation, MTT; 72 h).
With `O=C1Nc2ccccc2/C1=N\Nc1nnc2n1N=C(c1ccc(Cl)cc1)CS2` the inhibition was 13% (SF-539; cell growth or viability, SRB; 10 µM).
`O=C1NCC(Cc2ccccc2)N(CC2CCCN2CC(CC2CCCCC2)N2CC(Cc3ccc(O)cc3)N(CCc3ccccc3)C(=O)C2=O)C1=O` (stereo not drawn) — result for “late apoptotic cells”: 4% (WM 266-4; annexin V flow cytometry; 100 µM, 24 h, together with: Z-VAD-FMK 10 µM).
`O=C1OCC2=C1C(c1cccc(Br)c1)C1=C(N2)C(=O)c2ccccc2C1=O` (stereo not drawn): “total apoptotic cells” 11.9% (SK-LU-1 cells; annexin V/PI; 0.16 µM, 24 h).
`N#Cc1cccc(-c2ccc(=O)n(Cc3cccc(-c4ncc(OCC5CCN(CC(=O)NCCOCCNc6ccc7c(c6)C(=O)N(C6CCC(=O)NC6=O)C7=O)CC5)cn4)c3)n2)c1` (stereo not drawn) has an apoptotic cells of 43.6% (EBC-1; annexin V flow cytometry; 10 nM, 48 h).
For `CC/C=C\C/C=C\C/C=C\C/C=C\C/C=C\C/C=C\CCC(=O)Nc1ccn(C2OC(CO)C(O)C2(F)F)c(=O)n1` (stereo not drawn), the TGI was 29.8 µM (SK-MEL-2; NCI60 screen).
`CCNS(=O)(=O)c1ccc(COc2ccc3nc4ccc(=O)cc-4oc3c2)cc1` — result for cell migration: “inhibited” (BT-549; 3D collagen I gel; 1 µM, 48 h).
For `COc1ccc([C@@H]2CC(=O)c3c(O)cc(O[C@@H]4O[C@H](CO[C@@H]5O[C@@H](C)[C@H](O)[C@@H](O)[C@H]5O)[C@@H](O)[C@H](O)[C@H]4O)cc3O2)cc1O`, the cell count was 10800 ± 473 (MRC5; trypan blue exclusion; 100 µg/mL, 24 h).
For `COC(=O)c1ccccc1-c1c2ccc(=O)cc-2oc2cc(OCCCCCCCCCCC[P+](c3ccccc3)(c3ccccc3)c3ccccc3)ccc12`, the Pearson coefficient was 0.896 ± 0.006 (HeLa cells; confocal microscopy; together with: MitoTracker Deep Red).
`CN1CCC(N[C@@H]2CCc3[nH]c4c(C(N)=O)ccc(-c5ccccc5Cl)c4c3C2)CC1`: “increase in apoptotic cells” 14.1% (HCT-116 p53 knock-out; annexin V-FITC/PI; 50 nM).
For `COc1cc(CNC(=O)C[C@H](C)CCC=C(C)C)ccc1OCc1cn(-c2ccccc2Cl)nn1`, the growth percent was 75.2% (SF-539 CNS cancer cells; SRB; 10 µM, 48 h).
The GI50 of `CC(=C(c1ccc(O)cc1)c1ccc(Cl)cc1)c1ccc(Cl)cc1` is reported as 800 nM (SK-MEL-2; cell growth or viability, SRB).
With `COc1cc(C2Oc3ccc(C=C4Oc5cc(O)ccc5C4=O)cc3OC2CO)cc(OC)c1O` (stereo not drawn) the selectivity ratio was 1.15 (MRC5 over HeLa; cytotoxicity, MTT; 72 h; reference: IC50 MRC5 over IC50 HeLa).
For `COc1cc(CNC(=O)C[C@H](C)CCC=C(C)C)ccc1OCc1cn(-c2ccccc2[N+](=O)[O-])nn1`, the growth percent was 108% (A498; SRB; 10 µM, 48 h).
`O=C1CC(c2ccc(O)cc2)Oc2c1c(O)cc1oc3cc(O)c(O)cc3c21` (racemic) gave a viability of 89.5% (L02; MTT; 10 µM, 2 h, together with: H2O2 100 µM; reference: untreated).

Some of these lines once more:
The growth of `COc1cc(CNC(=O)C[C@H](C)CCC=C(C)C)ccc1OCc1cn(-c2cccc(C(F)(F)F)c2)nn1` is reported as 97.1% (CCRF-CEM; SRB; 10 µM, 48 h).
`COc1ccc(NC(=O)COc2ccc(/C=C/C(C)=N/O)cc2OC)cc1`: “TNF-α expressing cells” 41.4% (SH-SY5Y; flow cytometry; 2.5 µM, together with: amyloid beta 10 µM).
`COc1cc(CNC(=O)C[C@H](C)CCC=C(C)C)ccc1OCc1cn(-c2ccc(Cl)cc2Cl)nn1` gave a growth percent of 66.9% (SF-539 CNS cancer cells; SRB; 10 µM, 48 h).
`CCCC[C@H](NC(=O)[C@H](Cc1ccccc1)NC(=O)[C@H](Cc1c[nH]cn1)NC(=O)C[C@@H](NC(=O)[C@@H](NC(=O)[C@H](C)NC(=O)[C@H](Cc1c[nH]c2ccccc12)NC(=O)[C@H](CCC(N)=O)NC(=O)[C@H](N)Cc1ccc(O)cc1)C(C)C)c1ccccc1)C(N)=O`: “EGFR tyrosine phosphorylation” “increased” (NCI-H1299 expressing BRS-3; EGFR transactivation, Western blot; 100 nM).
The optimal concentration of `CCCCCCCCN(CCC(=O)Nc1ccccc1)C(=O)c1ccccn1` is reported as 2 µM (Lmna G609G/G609G mouse fibroblasts; cell proliferation, MTT; 72 h).
With `O=C1Nc2ccccc2/C1=N\Nc1nnc2n1N=C(c1ccc(Cl)cc1)CS2` the inhibition was 13% (SF-539; cell growth or viability, SRB; 10 µM).
